Experimental data gathered from unrelated publications.
Parts stem from different laboratories: compare values within a part only.

Study 1 — method: RNA Bind-n-Seq; molecule type: RNA; matrix: in vitro; tested at: 1 µM; setting: whole 134-nt RNA, ends assumed; added: 150 mM KCl; relative to: input library; reading: higher = stronger binding
Target: Ras GTPase-activating protein-binding protein 1, RRM domain (G3BP1, Homo sapiens, UniProt Q13283)
Sequence of UniProt Q13283 (whole entry, looked up): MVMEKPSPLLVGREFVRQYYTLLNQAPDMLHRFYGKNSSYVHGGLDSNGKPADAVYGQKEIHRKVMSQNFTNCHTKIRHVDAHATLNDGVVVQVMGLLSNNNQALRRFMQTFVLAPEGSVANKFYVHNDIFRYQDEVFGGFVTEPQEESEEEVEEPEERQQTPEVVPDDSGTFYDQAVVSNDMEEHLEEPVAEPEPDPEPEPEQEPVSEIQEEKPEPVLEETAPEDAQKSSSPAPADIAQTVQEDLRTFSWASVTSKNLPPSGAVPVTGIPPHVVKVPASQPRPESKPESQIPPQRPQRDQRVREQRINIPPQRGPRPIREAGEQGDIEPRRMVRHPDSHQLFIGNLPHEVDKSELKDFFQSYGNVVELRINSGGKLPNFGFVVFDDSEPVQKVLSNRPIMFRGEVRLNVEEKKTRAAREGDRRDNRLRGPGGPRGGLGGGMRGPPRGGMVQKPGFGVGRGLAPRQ
Sequence	log2 enrichment
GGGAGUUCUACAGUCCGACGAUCUAACUUUAGAGGAGGAUCUGAUGGAUAUGGCAGUGGACGUGGAUUUGGGGAUGGCUAUAAUGGGUAUGGAGGAGGACCUGGAGGUGACAAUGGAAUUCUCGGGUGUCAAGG	-0.345
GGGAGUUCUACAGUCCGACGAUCCAAGUCCUGUGCUACACAUCGUAUGUACCGAAUCGGUUUUUGGAAAGGUUUUUGGAAAGUAUUAUGUUACGCCGUUCGGAUCUGCACUUCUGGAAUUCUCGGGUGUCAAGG	-0.333
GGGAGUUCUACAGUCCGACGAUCCCUGUGCUACACAUCGUAUGUACCGAAUCGGGGUUUUUGGGGAAAAAAAGGGGAAAGGGGAAAGUAUUAUGUUACGCCGUUCGGAUCUGCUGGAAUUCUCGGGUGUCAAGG	0.675
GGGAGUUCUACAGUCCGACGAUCCCUGUGCUACACAUCGUAUGUACCGAAUCGGGUUUUUUUGGGAAAAAAAGGGAAAAAGGGAAAGUAUUAUGUUACGCCGUUCGGAUCUGCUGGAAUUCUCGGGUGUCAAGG	-0.408
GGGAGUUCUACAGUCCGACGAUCCAAGUCCUGUGCUACACAUCGUAUGUACCGAAUCGGGGCCCGGGGCCCGGCCCGGAAAGUAUUAUGUUACGCCGUUCGGAUCUGCACUUCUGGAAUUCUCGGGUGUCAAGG	-1.02
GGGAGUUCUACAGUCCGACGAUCUCAAGUCCUGUGCUACACAUCGUAUGUACCGAAUCGGGGCCGGGCCGGGCCGGGGAAAGUAUUAUGUUACGCCGUUCGGAUCUGCACUUCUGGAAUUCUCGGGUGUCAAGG	-0.88
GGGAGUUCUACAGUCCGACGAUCCACAGACAACACGCACCCACACAGACACAGAGGGAAGUGGUUGGGAUGGGGACAGGGUGCACAGCAGGGCGGGGUAGGACCCCAGCCCCUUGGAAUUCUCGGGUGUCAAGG	-0.0263
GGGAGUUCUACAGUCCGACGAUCUCCUGUGCUACACAUCGUAUGUACCGAAUCGUGUGUGUGUGUGUGUGUGUGUGUGUGUGAAAGUAUUAUGUUACGCCGUUCGGAUCUGCAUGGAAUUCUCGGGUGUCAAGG	0.0869
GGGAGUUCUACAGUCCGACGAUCACCAUGCAGGUGGGCAUCUUUGGGAAGUGGGGCAAGGGGGGGAUAGGGAGGGGGGCAACACUUUGGGAACAGGUGGUCCCAGGUCGUUUCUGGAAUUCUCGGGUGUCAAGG	-0.154
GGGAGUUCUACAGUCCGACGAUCAAGUCCUGUGCUACACAUCGUAUGUACCGAAUCGGGGCCCGGGGCCCGGCCCGGGGAAAGUAUUAUGUUACGCCGUUCGGAUCUGCACUUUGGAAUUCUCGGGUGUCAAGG	-1.22

Study 2 — method: RNA Bind-n-Seq; molecule type: RNA; matrix: in vitro; tested at: not given; setting: RNA with constant flanks, ends assumed; relative to: input RNA pool; reading: higher = stronger binding
Target: RING finger protein unkempt homolog, zinc fingers 1-6, GST-SBP tag (UNK, Homo sapiens, UniProt Q9C0B0, residues 30-357)
Construct (chain): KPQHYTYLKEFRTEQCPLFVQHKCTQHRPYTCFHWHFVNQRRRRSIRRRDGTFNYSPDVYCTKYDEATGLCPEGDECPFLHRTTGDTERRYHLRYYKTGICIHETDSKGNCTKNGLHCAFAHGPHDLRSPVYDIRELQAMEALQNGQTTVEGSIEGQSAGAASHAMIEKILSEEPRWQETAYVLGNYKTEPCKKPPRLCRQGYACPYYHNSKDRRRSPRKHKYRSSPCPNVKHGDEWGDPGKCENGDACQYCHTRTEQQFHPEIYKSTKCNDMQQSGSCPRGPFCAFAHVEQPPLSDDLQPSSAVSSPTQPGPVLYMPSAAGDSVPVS
Sequence	bound/input enrichment [ratio]
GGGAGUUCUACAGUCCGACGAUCAGCGGCUACAAGACCCUGGGUUCACUCCCCAGAACCACCAGAGGGUAAACACCAGACCUCCCGGUAAAAAUGAUAAAGUUAUUUUCUUGUUAUACAGUUUAGAGUGUUGCCUUUCACAUUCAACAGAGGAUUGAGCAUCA	1.86
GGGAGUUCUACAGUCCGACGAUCAGGAGCCAGGAGAGGCGGGCGGGUCCCUAACGCUCGCAUUUGGGUAAAAGUCGCACGGAGCCGCAGCGUCUGUUCUGCACCAACUCAGAGUCUUGUUGGAGCUUUAUCCCUUUGUCCUAGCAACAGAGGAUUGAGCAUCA	0.117
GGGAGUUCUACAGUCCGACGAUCAUUGCAGCUAAAUAUCAGUUGGAUCCCACUGCUUCCAUUUCUGCAAAAGUCAACAACUCCCGCUUAAUUGGAGUAGGCUAUACUCAGACUCUGAGGCCUGGUGUGAAGCUUACACUCUCUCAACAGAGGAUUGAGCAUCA	0.177
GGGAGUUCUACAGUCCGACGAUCCGAUUACACAGGGUCAAGACCGUCUGCAGCAAGCACAUGCAUCCCCUCCGACUGGUGUGAGCCGUAAGAAAAGCACACACAGACAGGAGGACAUCUGGAGCCACACAAACUGGGUGGAAACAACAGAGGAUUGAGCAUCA	0.0948
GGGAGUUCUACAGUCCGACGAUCGUACGAGUUGAAUGGAUCGCAGCAGUUACCAUUGCUGCUGGGACAGCUGCAAUUGGUUAUCCCGCUUACAAAAGAUUUUAUGUUAAAGAUCAUCGAAAUAAAGCUAUGAUAAACCUUCACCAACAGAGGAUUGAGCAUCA	0.176
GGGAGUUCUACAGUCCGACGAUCCCGAUGAACAGGAAAUCAAUGCCUGAGGCUGACUUCAGCUCCUGGACACCCUUAGAAUUCCCCGUUGAAACUUUCCAUGACUGGAUCACAGGGAAAAACCGACCGAGCUCAGGAAGCCUACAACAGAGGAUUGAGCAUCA	0.191
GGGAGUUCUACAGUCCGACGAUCACACCUAGUGACCGUUCCAGAUACAGGUUAGAUUUGGAAGGAAAUGAGUAUCCUGUUCACCGCACUCCAAAUUGUCACGAUCAUGAACGUAACCAUAAAGUGCCUCCACCUAUUAAACCUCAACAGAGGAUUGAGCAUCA	0.223
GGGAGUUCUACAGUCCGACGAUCGCCAGGGGAGUUCUCAAAUGUGACAUCACAGACCUUCAGAUCAUUUGUUCUUUGGGAUACCGCAUUCUUCUCAUGGUCACAUGUACUGUGUAUGCCAUCAAGACUCGGGGUGUACCAGAGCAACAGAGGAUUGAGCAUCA	0.145
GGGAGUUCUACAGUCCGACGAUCCAUGUAUCUGCAGUGCUUGAUGUGGAUUACUCUCCCACUGGGAAGGAGUUUGUGUCUGCCCGUUUCGAUAAAUCUAUUCGAAUCUUUCCUGUAGACAAAAGUCGAAGCAGGGAGGUAUAUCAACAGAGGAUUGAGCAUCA	0.154
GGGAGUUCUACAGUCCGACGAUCAAUGGGAAAACGGUAUAUGCACCAUCCCCAAAUUCAGAUGAUUUCAACCGUGAAUCUCCCCGUUAUCCAUCUCCUAAGCCACCAACCAGUAUGUUCGCUAGCACUUUCUUUAUGCAAGAUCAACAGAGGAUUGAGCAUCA	1.25
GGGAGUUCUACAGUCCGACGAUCUCUCUGUUCAGCUGUUAAUGCUGGGAUCCAUAUUUAGUUUUAUAAGCUUUUCCCUGUUUUCCGUUUUGUUUUGGGUUUUUUGGCUCAUGAAUUUUAUUUCUGUUUGUCGAUAAGAAAUGUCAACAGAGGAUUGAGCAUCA	25.1

Study 3 — method: universal PBM; molecule type: double-stranded DNA, one strand shown; matrix: in vitro; tested at: not given; reading: higher = stronger binding
Target: Sal-like protein 4, full length isoform B (SALL4, Homo sapiens, UniProt Q9UJQ4-2, residues 1-616)
Setting: 8-mer, flanks averaged, mean of replicates
Sequence	E-score
AAGGAAAA	0.228
CCGCTGAC	-0.245
TCCGGGAA	-0.141
AAATTACG	0.202
AGTTCGAG	-0.0392
CTCGAAAC	-5e-05
AATAACGG	0.296
GGTTCGTA	-0.0637
TCAAATAA	0.317
ATTTCACG	0.0941
ACCCCCAC	-0.199
TCAACGCA	0.0174
ATCATCAT	0.295
TAGTGAAA	0.176
CCCTTGTC	-0.028
AGTACTCA	0.138
CGATGGTA	-0.00189
CCATAGCA	0.0144
CCGCGACG	-0.283
CAATTTGA	0.256
AAATCCTC	-0.183
CCCACGGG	-0.339
CTACCGAC	-0.134

Study 4 — method: RNA Bind-n-Seq; molecule type: RNA; matrix: in vitro; tested at: 365 nM; relative to: no-protein control; reading: higher = stronger binding
Target: RNA binding protein fox-1 homolog 2, RRM domain, GST-SBP tag (RBFOX2, Homo sapiens, UniProt O43251-10, residues 100-194)
Setting: natural RNA segment, single round, ends assumed
Target sequence (chain): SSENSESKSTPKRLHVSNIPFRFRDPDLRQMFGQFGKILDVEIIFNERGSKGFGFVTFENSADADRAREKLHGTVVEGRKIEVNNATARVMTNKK
Sequence	RBNS enrichment (R)
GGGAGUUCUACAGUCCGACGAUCAUCAUGACAGGAAUGAACCCAAACUCAGAACAAUAAAAUCAAUUCUGUGCUCCCCACGCGGGGCUUGAUCCUCGUGUGUGUGUCUGAGAGCUCCAACGGAGCAAGCAAGAUGGAAUUCUCGGGUGCCAA	0.385
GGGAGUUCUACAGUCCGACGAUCCUCGAGUACUGUGGGCAAUUUAGAAAAAGAACAUGCAGUUUGAAAUUCUGAAUUUGCAAAGUACUGUAAGAAUAAUUUAUAGUAAUGAGUUUAAAAAUCAACUUUUUAUUUGGAAUUCUCGGGUGCCAA	0.786
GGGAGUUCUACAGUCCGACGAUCCUUUCUGGAAGACUCAAGAUAUGUCUCUUCAUUCUCUCUCAGUAUUUGUUUACUUUGGUUUUUUUGUUUUUAAUCUCAGAGAGAGGUGUGUUUAGUGGGCACAAGCUGUAUGGAAUUCUCGGGUGCCAA	0.678
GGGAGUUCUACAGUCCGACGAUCCACUCUUCUGACUUGGUUUCUCCAAAUGGGAGGAGACCCAGCUCUGGACAGAAAGGGGACCCGACUGCUUUGGACCUAGAUGGCCUAUUGCGGCUGGAGGAUCCUGAGGAUGGAAUUCUCGGGUGCCAA	0.29
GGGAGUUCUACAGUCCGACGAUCGCUGUACAAGUAUAGGCAGAGUUAUUUUCCUGUUUACAUUUUUUUUUUGUUUUGGGGAAAAAAUUGGUAGGUGUCUAAUUACUGUUUACUUCAUUGUUAUAUUGCAGUAAUGGAAUUCUCGGGUGCCAA	0.877
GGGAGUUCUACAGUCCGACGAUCGUAUGCAUAUGUAUGGGUGUGUGUGUGUGCGCGCAAUCAAACUGUGGUGUAAAUAGAUUCUCAGUGAAUUCUGGUAUUCAGACUCUAUUCCACUAGUGAAAGAACCAUUUUGGAAUUCUCGGGUGCCAA	0.596
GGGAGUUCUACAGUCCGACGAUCAAUACUGAAUUCAGUUAUCUCACCUGACUGCUUUCCUGCCCUCAGACCUGGACACUGGGCCUCAGCCCCUGGCCGUGUGGAAUCCAUGGGAUCCUCGGGACUCCCCAGACUGGAAUUCUCGGGUGCCAA	0.25
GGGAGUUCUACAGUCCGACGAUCUUAGCCCUCUGCCUCUCCAAAGCAUCAGAACCACCUUCAGUCUGGAGAAGGGGAAGCCUCUUGGAGACAGAGGGUUUCACCUUAUAUGACCUCAAGAGAAACAGCCUAAGUGGAAUUCUCGGGUGCCAA	0.859
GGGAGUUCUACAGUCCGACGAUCGUUGGGAUUCUGUUAUCCCUGAUACCCCAGGAGCCUAUUGACCUGACUGAGAAUAGUGACAUGUCUGUCUUGUGACCAGAUAUGAGUGUGCAUAAGGUCCUGUCUAGCCGUGGAAUUCUCGGGUGCCAA	0.606

Repeated from above (study 1):
Sequence	log2 enrichment
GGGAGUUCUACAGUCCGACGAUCCAAGUCCUGUGCUACACAUCGUAUGUACCGAAUCGGUUUUUGGAAAGGUUUUUGGAAAGUAUUAUGUUACGCCGUUCGGAUCUGCACUUCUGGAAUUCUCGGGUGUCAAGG	-0.333
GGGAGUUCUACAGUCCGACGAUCCCUGUGCUACACAUCGUAUGUACCGAAUCGGGGUUUUUGGGGAAAAAAAGGGGAAAGGGGAAAGUAUUAUGUUACGCCGUUCGGAUCUGCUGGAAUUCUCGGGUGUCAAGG	0.675
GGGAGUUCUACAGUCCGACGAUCCCUGUGCUACACAUCGUAUGUACCGAAUCGGGUUUUUUUGGGAAAAAAAGGGAAAAAGGGAAAGUAUUAUGUUACGCCGUUCGGAUCUGCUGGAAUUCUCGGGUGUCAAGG	-0.408
